# Measurements gathered from unrelated publications.
# Numbered parts are unrelated; each lists some results of a single study. Changes are numbered by the printed parent chain.

# Block 1
# Target: CCNE1, cyclin fold, Cln2 fusion (human)
# Method: yeast growth competition, sequencing
# Matrix: yeast
# Setting: strong parent motif
# Reference: not given
# Reading: higher = stronger binding
# Parent: viral docking peptide; KGVKRKLFAEDSS
Variant,normalised enrichment score
K4T,5.47
K4N,6.16
G2A,7.13
K6H,4.52
R5P,0.215
G2D,7.45
D11C,7.17
V3G,2.38

# Block 2
# Target: tungstate, free oxyanion
# Method: microfluidic competitive inhibition
# Matrix: in vitro, cell-free expressed
# Concentration: not given
# Setting: derived from inhibition constants, unchanged parent 2230 nM
# Reading: lower = stronger binding
# Parent: PafA, mature enzyme, eGFP fusion (Elizabethkingia meningoseptica, UniProt Q9KJX5); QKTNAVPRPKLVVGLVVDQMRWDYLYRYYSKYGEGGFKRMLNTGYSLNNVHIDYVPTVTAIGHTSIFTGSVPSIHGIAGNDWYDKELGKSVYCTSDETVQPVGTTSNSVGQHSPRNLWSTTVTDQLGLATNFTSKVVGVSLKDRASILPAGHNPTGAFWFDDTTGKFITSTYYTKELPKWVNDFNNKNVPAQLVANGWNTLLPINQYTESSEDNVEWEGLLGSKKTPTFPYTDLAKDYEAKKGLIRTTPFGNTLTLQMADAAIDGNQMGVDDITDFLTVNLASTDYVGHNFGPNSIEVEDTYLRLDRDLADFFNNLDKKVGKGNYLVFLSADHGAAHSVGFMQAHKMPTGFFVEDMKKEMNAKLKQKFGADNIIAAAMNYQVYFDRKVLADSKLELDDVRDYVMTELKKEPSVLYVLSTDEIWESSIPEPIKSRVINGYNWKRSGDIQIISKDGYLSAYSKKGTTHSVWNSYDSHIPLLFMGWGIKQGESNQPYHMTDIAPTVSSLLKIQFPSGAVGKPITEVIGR
Variant,oxyanion analog dissociation constant [µM]
V16A,2.35
T120G,1.98
E359V,2.1
I476G,1.73
K175V,2.09
T349G,2.01
S426V,2.03
Y92G,31.8

# Block 3
# Target: UDP-N-acetylglucosamine--peptide N-acetylglucosaminyltransferase 110 kDa subunit (OGT, Homo sapiens, UniProt O15294)
# Observed: binding
# Method: phage display NGS
# Form: peptide
# Concentration: concentration not given
# Reference: input library
# Target sequence (O15294 1-1046): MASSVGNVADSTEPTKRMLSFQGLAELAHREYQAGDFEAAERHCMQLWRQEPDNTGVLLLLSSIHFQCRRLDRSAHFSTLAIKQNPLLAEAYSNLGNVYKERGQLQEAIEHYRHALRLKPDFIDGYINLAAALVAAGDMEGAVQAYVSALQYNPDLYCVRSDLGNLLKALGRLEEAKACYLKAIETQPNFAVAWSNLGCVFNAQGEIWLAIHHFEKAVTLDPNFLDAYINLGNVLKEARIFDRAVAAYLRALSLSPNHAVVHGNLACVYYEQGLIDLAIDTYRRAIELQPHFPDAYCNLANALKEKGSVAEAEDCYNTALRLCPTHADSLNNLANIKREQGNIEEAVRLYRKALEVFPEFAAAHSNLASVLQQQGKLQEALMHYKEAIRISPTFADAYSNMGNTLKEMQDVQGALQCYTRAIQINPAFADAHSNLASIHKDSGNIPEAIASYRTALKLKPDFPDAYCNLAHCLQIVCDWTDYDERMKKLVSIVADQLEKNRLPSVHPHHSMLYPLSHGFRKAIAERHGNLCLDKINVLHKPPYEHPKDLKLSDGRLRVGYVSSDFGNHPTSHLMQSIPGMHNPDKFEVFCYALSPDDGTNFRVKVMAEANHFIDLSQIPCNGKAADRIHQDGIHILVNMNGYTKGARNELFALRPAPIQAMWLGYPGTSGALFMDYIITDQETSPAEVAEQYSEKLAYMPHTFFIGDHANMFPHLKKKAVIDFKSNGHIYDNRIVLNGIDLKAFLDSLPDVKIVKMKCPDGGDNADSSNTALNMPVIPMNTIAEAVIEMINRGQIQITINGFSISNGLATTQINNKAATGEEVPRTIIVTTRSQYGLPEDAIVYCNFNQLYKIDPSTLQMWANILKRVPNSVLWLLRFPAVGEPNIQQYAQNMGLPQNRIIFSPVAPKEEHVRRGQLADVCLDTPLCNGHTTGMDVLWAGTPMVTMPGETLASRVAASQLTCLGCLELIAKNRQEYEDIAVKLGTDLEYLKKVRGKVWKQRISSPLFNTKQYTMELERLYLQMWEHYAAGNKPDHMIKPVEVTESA
Molecule,enrichment fold change
HFISPHPHRVENRMH,3.25
TAPFYPPAYQI,1.02
YPMHNHHVMYDFHAD,3.94
SWMPFYQIEFSQGSS,14.8
HQMPFAFHHDHPFVH,4.91
HKHLMDRHDFMYMHA,8.12
YIERTSVMPQYQITY,21
HQHQHIDHHYLFEG,5.35

# Mixed results
SMILES,cell line,assay,test system,conditions,how to read,endpoint,value
CC(=O)Oc1ccccc1C(=O)Nc1ncc([N+](=O)[O-])s1,HEK-293T,"pseudovirus infection, FDA-approved drug library counter-screen",VSV pseudotyped with VSV-G,"10 µM, 16 h",reference: vehicle-treated,GFP-positive cells,2.18%
